Measured values from different studies.
Protocols differ between the studies behind these lines. “And” joins repeats or separate records; there may be more than shown. ± marks the error that the study gave.
Cell line: RAW264.7

CC#CC#C/C=C1/O[C@@]2(CC[C@@H](O)CO2)[C@H](O)[C@H]1OC(=O)CC(C)C  viability (MTT; DMEM with 10% FBS; 50 µM, 18 h, with: LPS 1 µg/mL; baseline: DMSO): 92.1 ± 11.2%
COc1cc2c(cc1OC)-c1c(oc3c4c(cc(O)c3c1=O)OC(C)(C)C=C4)CO2  viability (cell growth or viability, MTT; 100 µg/mL, 24 h): 72.2%
COC1OC(C)C(OS(=O)(=O)O)C(OC2OC(C)C(OS(=O)(=O)O)C(OC3OC(C)C(OS(=O)(=O)O)C(OC4OC(C)C(OS(=O)(=O)O)C(OC5OC(C)C(OS(=O)(=O)O)C(OC6OC(C)C(OS(=O)(=O)O)C(OC7OC(C)C(OS(=O)(=O)O)C(OC8OC(C)C(OS(=O)(=O)O)C(OS(=O)(=O)O)C8OS(=O)(=O)O)C7OS(=O)(=O)O)C6OS(=O)(=O)O)C5OS(=O)(=O)O)C4OS(=O)(=O)O)C3OS(=O)(=O)O)C2OS(=O)(=O)O)C1OS(=O)(=O)O (centres unmarked)  viability (CCK-8; concentration not given, 24 h, medium concentration; baseline: untreated cells): 131% and 117%
CC#CC#C/C=C1/O[C@]2(CC[C@H](OC(C)=O)CO2)[C@@H](O)[C@@H]1OC(=O)CC(C)C (stereo in doubt)  viability (MTT; DMEM with 10% FBS; 50 µM, 18 h, with: LPS 1 µg/mL; baseline: DMSO): 92 ± 7.1%
C/C=C(/NC(=O)CCCCCCC)C(=O)N/C(=C/C)C(=O)N[C@H](CC(C)C)C(=O)N[C@H](C(=O)Nc1ccc(C(=O)N[C@H](C(=O)O)[C@@H](C)O)cc1)c1ccc(O)cc1  IC50 (cytotoxicity, MTT): 86.5 ± 1.37 µM
CC#CC#C/C=C1/O[C@@]2(CCCCO2)[C@@H](O)[C@@H]1O  viability (MTT; DMEM with 10% FBS; 50 µM, 18 h, with: LPS 1 µg/mL; baseline: DMSO): 93.4 ± 9.8%
C/C=C(/NC(=O)CCCCCCC)C(=O)N/C(=C/C)C(=O)N[C@H](CC(C)C)C(=O)N[C@H](C(=O)Nc1ccc(C(=O)N[C@H](C(=O)O)[C@@H](C)O)cc1)C(C)C  IC50 (cytotoxicity, MTT): 65.8 ± 1.7 µM
COC1OC(C)C(OC2OC(C)C(OS(=O)(=O)O)C(OC3OC(C)C(OC4OC(C)C(OS(=O)(=O)O)C(OC5OC(C)C(OC6OC(C)C(OS(=O)(=O)O)C(OC7OC(C)C(OS(=O)(=O)O)C(OS(=O)(=O)O)C7OS(=O)(=O)O)C6OS(=O)(=O)O)C(OS(=O)(=O)O)C5OS(=O)(=O)O)C4OS(=O)(=O)O)C(OS(=O)(=O)O)C3OS(=O)(=O)O)C2OS(=O)(=O)O)C(OS(=O)(=O)O)C1OS(=O)(=O)O (centres unmarked)  viability (CCK-8; concentration not given, 24 h, high concentration; baseline: untreated cells): 105% and 102% and 118%
C/C=C(/NC(=O)CCCCCCC)C(=O)N/C(=C/C)C(=O)N[C@H](CC(C)C)C(=O)N[C@H](C(=O)Nc1ccc(C(=O)N[C@H](C(=O)O)[C@@H](C)O)cc1)[C@@H](C)CC  IC50 (cytotoxicity, MTT): > 100 µM
COC1OC(C)C(OC2OC(C)C(O)C(OC3OC(C)C(OC4OC(C)C(O)C(OC5OC(C)C(OC6OC(C)C(O)C(OC7OC(C)C(OC8OC(C)C(O)C(OS(=O)(=O)O)C8OS(=O)(=O)O)C(OS(=O)(=O)O)C7OS(=O)(=O)O)C6OS(=O)(=O)O)C(OS(=O)(=O)O)C5OS(=O)(=O)O)C4OS(=O)(=O)O)C(OS(=O)(=O)O)C3OS(=O)(=O)O)C2OS(=O)(=O)O)C(OS(=O)(=O)O)C1OS(=O)(=O)O (centres unmarked)  viability (CCK-8; concentration not given, 24 h, low concentration; baseline: untreated cells): 71.1% and 76.9% and 100%
C/C=C(/NC(=O)CCCCCCC)C(=O)N/C(=C/C)C(=O)N[C@@H](C(=O)N[C@H](C(=O)Nc1ccc(C(=O)N[C@H](C(=O)O)[C@@H](C)O)cc1)c1ccc(O)cc1)[C@@H](O)C(C)C  IC50 (cytotoxicity, MTT): > 100 µM
C=Cc1c(C)c2cc3nc(c(CC(=O)[O-])c4[n-]c(cc5nc(cc1[n-]2)C(C)=C5CC)c(C)c4C(=O)[O-])C(CCC(=O)[O-])C3C.[Cu+2].[Na+].[Na+].[Na+] (centres unmarked)  lowest protective concentration (cyclophosphamide cytotoxicity, CellTiter-Glo; with: cyclophosphamide): 5 to 10 µM
COc1cc(OC)c(-c2coc3c4c(cc(O)c3c2=O)OC(C)(C)C=C4)cc1OC  viability (cell growth or viability, MTT; 100 µg/mL, 24 h): 62.9%
CC#CC#C/C=C1/O[C@@]2(CC[C@@H](OC(C)=O)CO2)[C@H](O)[C@H]1OC(C)=O  viability (MTT; DMEM with 10% FBS; 50 µM, 18 h, with: LPS 1 µg/mL; baseline: DMSO): 95.3 ± 13.3%
